Literature values as cited in several papers.
Numbered parts are unrelated; values within a part may stem from several laboratories.

Study 1 — target: dopamine transporter
| SMILES | IC50 |
| --- | --- |
| Nc1nnc(-c2cccc(Cl)c2Cl)c(N)n1 | > 10000 nM |
| CC(C)CN(C[C@@H](O)[C@H](Cc1ccccc1)NC(=O)O[C@H]1CCOC1)S(=O)(=O)c1ccc(N)cc1 | > 10000 nM |
| CC(C)(C)NC(=O)[C@@H]1CN(Cc2cccnc2)CCN1C[C@@H](O)C[C@@H](Cc1ccccc1)C(=O)N[C@H]1c2ccccc2C[C@H]1O | > 10000 nM |

Study 2 — method: PAMPA
| Compound | log permeability (Pe) |
| --- | --- |
| COCC(=O)OCCCCCC(=O)N[C@H](C(=O)N1C[C@H](O)C[C@H]1C(=O)NCc1ccc(-c2scnc2C)cc1)C(C)(C)C | -6.15 |
| Cc1ncsc1-c1ccc(CNC(=O)[C@@H]2C[C@@H](O)CN2C(=O)[C@@H](NC(=O)CCCCCNC(=O)C2CCCCC2)C(C)(C)C)cc1 | -5.96 |
| CCCC(=O)NCCCCCC(=O)N[C@H](C(=O)N1C[C@H](O)C[C@H]1C(=O)NCc1ccc(-c2scnc2C)cc1)C(C)(C)C | -7 |
| Cc1ncsc1-c1ccc(CNC(=O)[C@@H]2C[C@@H](O)CN2C(=O)[C@@H](NC(=O)CCCCCNC(=O)CC23C[C@H]4C[C@@H](C2)C[C@@H](C3)C4)C(C)(C)C)cc1 | -5.17 |

Study 3 — organism: Cryptosporidium parvum; method: high-throughput screen; concentration: concentration not given
| SMILES | activity |
| --- | --- |
| CN(C)CCC=C1c2ccccc2COc2ccccc21 | inactive |
| CC[C@@]1(O)C(=O)OCc2c1cc1n(c2=O)Cc2cc3c(CN(C)C)c(O)ccc3nc2-1 | inactive |
| CN1CCN(CCCN2c3ccccc3Sc3ccc(C(F)(F)F)cc32)CC1 | inactive |
| CN(C)CCCN1c2ccccc2CCc2ccc(Cl)cc21 | inactive |
| CC(=O)OCC(=O)NCCCOc1cccc(CN2CCCCC2)c1 | inactive |
| C[N+]1(C)CCCC(OC(=O)C(O)(c2ccccc2)c2ccccc2)C1 (centres unmarked) | inactive |
| CC(=O)S[C@@H]1CC2=CC(=O)CC[C@]2(C)[C@H]2CC[C@@]3(C)[C@@H](CC[C@@]34CCC(=O)O4)[C@H]12 | inactive |
| CCOC(=O)[C@H](CCc1ccccc1)N[C@@H](C)C(=O)N1Cc2ccccc2C[C@H]1C(=O)O | inactive |
| CNCCCN1c2ccccc2CCc2ccccc21 | inactive |
| O=c1[nH]c(=O)n(C2CCCO2)cc1F (centres unmarked) | inactive |
| Clc1ccc(COC(Cn2ccnc2)c2ccc(Cl)cc2Cl)cc1 (centres unmarked) | inactive |
| CCN(CC)C(=O)C1(c2ccccc2)CC1CN.Cl (centres unmarked) | inactive |
| CN(C)CCCN1c2ccccc2Sc2ccc(Cl)cc21 | inactive |
| O=C1c2cccc3c2[C@H](CCC3)CN1[C@@H]1CN2CCC1CC2 | inactive |
| C=CC1=C(C(=O)O)N2C(=O)[C@@H](NC(=O)/C(=N\O)c3csc(N)n3)[C@H]2SC1 | inactive |
| CC(COc1ccccc1)N(CCCl)Cc1ccccc1 (centres unmarked) | inactive |
| CC(C)c1ccc2oc3nc(N)c(C(=O)O)cc3c(=O)c2c1 | inactive |
| CC(C)NCC(O)COc1cccc2[nH]ccc12 (centres unmarked) | inactive |
| C/C(=C\C(=O)OCCCCCCCCC(=O)O)C[C@@H]1OC[C@H](C[C@@H]2O[C@H]2[C@@H](C)[C@H](C)O)[C@@H](O)[C@H]1O | inactive |
| CC(C)(S)[C@@H](N)C(=O)O | inactive |
| CCC(C)n1ncn(-c2ccc(N3CCN(c4ccc(OCC5COC(Cn6cncn6)(c6ccc(Cl)cc6Cl)O5)cc4)CC3)cc2)c1=O (centres unmarked) | inactive |
| CN1CCN(CC/C=C2/c3ccccc3Sc3ccc(S(=O)(=O)N(C)C)cc32)CC1 | inactive |
| CCCc1c(OCCCCc2nnn[nH]2)ccc(C(C)=O)c1O | inactive |
| CCN1CC(CCN2CCOCC2)C(c2ccccc2)(c2ccccc2)C1=O.Cl (centres unmarked) | inactive |
| CCCNC(=O)NS(=O)(=O)c1ccc(Cl)cc1 | inactive |

Study 4 — cell line: MCF7; method: microarray; concentration: concentration not given; reference: DMSO
SMILES: CCCCCCCCNC(C)C(O)c1ccc(SC(C)C)cc1 (centres unmarked)
| measured | log2 fold change |
| --- | --- |
| STX3 mRNA | 1.63 |
| VEGFA mRNA | 2.22 |
| ZNF165 mRNA | 2.07 |
| TBC1D17 mRNA | 1.25 |

Other studies, line by line
DDR1: Epithelial discoidin domain-containing receptor 1 (DDR1, Homo sapiens, UniProt Q08345)
Sequence of UniProt Q08345 (whole entry, looked up): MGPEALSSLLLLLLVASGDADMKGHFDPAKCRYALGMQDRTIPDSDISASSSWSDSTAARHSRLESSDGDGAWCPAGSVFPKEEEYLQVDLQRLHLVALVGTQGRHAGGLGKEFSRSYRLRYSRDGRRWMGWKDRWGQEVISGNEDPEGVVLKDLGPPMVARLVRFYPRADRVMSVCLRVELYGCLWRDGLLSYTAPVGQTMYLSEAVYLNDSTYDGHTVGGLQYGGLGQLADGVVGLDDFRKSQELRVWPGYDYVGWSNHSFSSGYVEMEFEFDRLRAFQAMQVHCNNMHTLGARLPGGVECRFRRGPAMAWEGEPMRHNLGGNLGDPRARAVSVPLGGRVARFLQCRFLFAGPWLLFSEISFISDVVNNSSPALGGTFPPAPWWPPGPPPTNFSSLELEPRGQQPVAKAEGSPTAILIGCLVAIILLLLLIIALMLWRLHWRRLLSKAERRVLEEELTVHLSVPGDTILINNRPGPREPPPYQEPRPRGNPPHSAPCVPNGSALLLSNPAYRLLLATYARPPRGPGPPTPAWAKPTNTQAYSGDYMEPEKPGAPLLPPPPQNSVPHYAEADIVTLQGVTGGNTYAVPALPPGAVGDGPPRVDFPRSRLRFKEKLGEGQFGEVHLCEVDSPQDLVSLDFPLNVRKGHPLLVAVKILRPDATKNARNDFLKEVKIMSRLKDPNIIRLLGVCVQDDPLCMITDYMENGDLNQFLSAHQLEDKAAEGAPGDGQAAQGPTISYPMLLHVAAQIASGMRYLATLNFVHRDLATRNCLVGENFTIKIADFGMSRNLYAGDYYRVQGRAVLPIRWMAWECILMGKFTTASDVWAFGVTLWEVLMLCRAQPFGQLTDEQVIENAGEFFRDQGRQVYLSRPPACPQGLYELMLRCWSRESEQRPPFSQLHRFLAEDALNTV
| Structure (SMILES) | target or system | test | system | conditions | how to read | quantity | value |
| --- | --- | --- | --- | --- | --- | --- | --- |
| Cc1cc2c(C(N)=O)c(N)n(-c3c(C)ccc(O)c3C)c2nc1C |  |  | HCC1569 xenograft, mouse | 15 mg/kg |  | tumour growth inhibition | 79% |
| CCCS(=O)(=O)Nc1ccc(F)c(C(=O)c2c[nH]c3ncc(-c4ccc(Cl)cc4)cc23)c1F | ABCG2 |  | MCF7-FLV1000 |  |  | IC50 | 1240 nM |
| COc1ccccc1Oc1c(NS(=O)(=O)c2ccc(C(C)(C)C)cc2)nc(-c2ncccn2)nc1OCCO |  |  | human, blood |  |  | blood-to-plasma ratio | 0.48 ⁶ |
| Nc1ccn([C@@H]2O[C@H](COP(=O)(O)OP(=O)(O)O)[C@@H](O)[C@H]2O)c(=O)n1 | ribonuclease A | binding, ESI mass spectrometry |  |  |  | Kd | 1000 to 3000 nM |
| Cn1nc(C(=O)NCc2ccc(C(=O)O)cc2)cc1-c1ccc2[nH]ccc2c1 | MMP13 | biochemical activity |  |  |  | IC50 | 26000 nM |
| Cc1ccc(C(=O)Nc2cccc(C(F)(F)F)c2)cc1Nc1cncc(C(N)=O)c1 | DDR1 | enzyme activity, radiometric |  |  |  | IC50 | 19 nM |
| C1=C/COCc2cc(ccc2OCCN2CCCC2)Nc2nccc(n2)-c2cccc(c2)COC/1 |  |  | human | dose not given, together with: clarithromycin | reference: without clarithromycin | AUC(0-inf) increase | 80% |
| CN(C)C/C=C/C(=O)Nc1cc2c(Nc3ccc(F)c(Cl)c3)ncnc2cc1O[C@H]1CCOC1 | ABCG2 |  | HEK293-ABCG2 |  |  | IC50 | 500 nM |
| Cc1cc(=O)n(-c2ccccc2)n1C |  |  | human, blood |  |  | blood-to-plasma ratio | 1 ² |
| CCOc1cc(N2C3COCC2CN(C(=O)[C@H]2C[C@H](O)CN2c2ccc(Cl)cc2)C3)ccc1Cl | CCR1 | biochemical |  |  |  | IC50 | 3 nM |
| O=C1NC(=O)C(c2cn(-c3ccccc3)nc2-c2ccc(F)cc2)N1 (centres unmarked) | BCR-ABL1 | ABL1 kinase activity |  |  |  | EC50 | 1140 nM |
| CCN1CCN(Cc2ccc(C(=O)Nc3ccc(C)c(Oc4ccc5c(c4)CC(=O)N5)c3)cc2C(F)(F)F)CC1 | U2OS | collagen-induced autophosphorylation, inhibitor |  |  |  | EC50 | 86 nM |
| Cc1cc(C)c(-n2ccn3nc(-c4cccnc4)cc23)cc1NC(=O)c1cc(C#N)cc(S(F)(F)(F)(F)F)c1 | DDR1 | target binding, NanoBRET |  |  |  | IC50 | 1.5 nM |
| CCOCCn1cc(C(=O)Nc2ccc(-n3nc(-c4cccnc4)cc3C(F)(F)F)cn2)ccc1=O | EPHX2 | cellular activity |  |  |  | IC50 | < 1 nM |
